Assay results collected from several papers.
Compare with care: the assays were run in different laboratories. “And” joins repeats or separate records; there may be more than shown. ± gives the spread as reported.
UniProt Q9UQM7, sequence (whole entry, looked up): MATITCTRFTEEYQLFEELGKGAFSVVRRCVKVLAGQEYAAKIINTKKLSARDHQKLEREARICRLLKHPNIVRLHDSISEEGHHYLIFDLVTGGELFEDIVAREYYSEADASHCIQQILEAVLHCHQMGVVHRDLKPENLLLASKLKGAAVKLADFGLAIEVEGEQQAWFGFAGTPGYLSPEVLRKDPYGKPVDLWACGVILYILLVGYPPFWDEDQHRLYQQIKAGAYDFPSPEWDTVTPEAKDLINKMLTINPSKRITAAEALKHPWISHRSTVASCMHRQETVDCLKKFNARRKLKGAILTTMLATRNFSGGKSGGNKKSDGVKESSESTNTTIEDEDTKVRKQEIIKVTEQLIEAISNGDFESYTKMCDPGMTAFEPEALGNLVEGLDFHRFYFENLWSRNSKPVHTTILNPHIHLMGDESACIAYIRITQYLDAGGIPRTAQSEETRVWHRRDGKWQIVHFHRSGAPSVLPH
UniProt O70528, sequence (whole entry, looked up): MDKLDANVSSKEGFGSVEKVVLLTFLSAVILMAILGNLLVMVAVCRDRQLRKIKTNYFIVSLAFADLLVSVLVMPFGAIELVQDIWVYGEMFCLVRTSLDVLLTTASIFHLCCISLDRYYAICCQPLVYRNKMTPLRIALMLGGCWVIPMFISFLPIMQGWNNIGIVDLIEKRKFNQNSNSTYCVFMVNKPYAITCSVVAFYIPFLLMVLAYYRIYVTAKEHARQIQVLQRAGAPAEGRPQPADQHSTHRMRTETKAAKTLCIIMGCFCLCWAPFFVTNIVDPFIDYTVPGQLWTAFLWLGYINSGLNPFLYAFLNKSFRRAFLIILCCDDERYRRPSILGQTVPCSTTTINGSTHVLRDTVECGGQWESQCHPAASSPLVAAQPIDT
UniProt Q9BZJ8, sequence (whole entry, looked up): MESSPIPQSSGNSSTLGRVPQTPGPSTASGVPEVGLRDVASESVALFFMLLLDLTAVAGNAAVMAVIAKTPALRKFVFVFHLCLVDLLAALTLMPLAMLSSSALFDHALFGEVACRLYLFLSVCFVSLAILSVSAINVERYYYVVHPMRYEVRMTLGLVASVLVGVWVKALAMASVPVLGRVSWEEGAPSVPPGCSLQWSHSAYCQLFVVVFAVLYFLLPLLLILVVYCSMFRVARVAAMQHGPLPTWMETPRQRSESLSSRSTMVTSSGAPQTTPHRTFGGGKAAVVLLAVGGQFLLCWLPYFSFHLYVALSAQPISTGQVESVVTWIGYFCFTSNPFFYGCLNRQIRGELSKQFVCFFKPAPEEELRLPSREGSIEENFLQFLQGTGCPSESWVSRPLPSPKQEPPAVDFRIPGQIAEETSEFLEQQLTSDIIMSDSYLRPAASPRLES
UniProt P43251, sequence (whole entry, looked up): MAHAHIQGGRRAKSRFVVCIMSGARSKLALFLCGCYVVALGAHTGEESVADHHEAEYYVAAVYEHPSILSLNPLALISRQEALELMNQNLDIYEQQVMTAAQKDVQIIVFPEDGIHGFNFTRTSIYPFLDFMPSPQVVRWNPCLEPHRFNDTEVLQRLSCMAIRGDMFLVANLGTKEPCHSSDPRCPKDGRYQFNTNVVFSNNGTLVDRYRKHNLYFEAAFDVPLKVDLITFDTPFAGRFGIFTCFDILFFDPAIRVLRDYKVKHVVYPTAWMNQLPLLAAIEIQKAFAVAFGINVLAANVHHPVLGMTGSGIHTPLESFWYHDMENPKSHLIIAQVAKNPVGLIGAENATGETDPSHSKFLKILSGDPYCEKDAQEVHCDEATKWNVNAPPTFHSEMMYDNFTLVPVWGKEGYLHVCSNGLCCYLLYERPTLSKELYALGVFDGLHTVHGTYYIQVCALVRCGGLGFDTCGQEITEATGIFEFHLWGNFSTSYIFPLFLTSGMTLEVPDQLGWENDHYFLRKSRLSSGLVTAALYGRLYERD
UniProt P38489, sequence (whole entry, looked up): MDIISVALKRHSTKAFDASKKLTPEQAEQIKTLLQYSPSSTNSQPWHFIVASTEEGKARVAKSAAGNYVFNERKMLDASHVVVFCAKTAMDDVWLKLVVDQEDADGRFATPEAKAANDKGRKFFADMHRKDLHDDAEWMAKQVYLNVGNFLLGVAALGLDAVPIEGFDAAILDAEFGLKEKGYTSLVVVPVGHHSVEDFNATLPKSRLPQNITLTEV
UniProt Q9UIA9, sequence (whole entry, looked up): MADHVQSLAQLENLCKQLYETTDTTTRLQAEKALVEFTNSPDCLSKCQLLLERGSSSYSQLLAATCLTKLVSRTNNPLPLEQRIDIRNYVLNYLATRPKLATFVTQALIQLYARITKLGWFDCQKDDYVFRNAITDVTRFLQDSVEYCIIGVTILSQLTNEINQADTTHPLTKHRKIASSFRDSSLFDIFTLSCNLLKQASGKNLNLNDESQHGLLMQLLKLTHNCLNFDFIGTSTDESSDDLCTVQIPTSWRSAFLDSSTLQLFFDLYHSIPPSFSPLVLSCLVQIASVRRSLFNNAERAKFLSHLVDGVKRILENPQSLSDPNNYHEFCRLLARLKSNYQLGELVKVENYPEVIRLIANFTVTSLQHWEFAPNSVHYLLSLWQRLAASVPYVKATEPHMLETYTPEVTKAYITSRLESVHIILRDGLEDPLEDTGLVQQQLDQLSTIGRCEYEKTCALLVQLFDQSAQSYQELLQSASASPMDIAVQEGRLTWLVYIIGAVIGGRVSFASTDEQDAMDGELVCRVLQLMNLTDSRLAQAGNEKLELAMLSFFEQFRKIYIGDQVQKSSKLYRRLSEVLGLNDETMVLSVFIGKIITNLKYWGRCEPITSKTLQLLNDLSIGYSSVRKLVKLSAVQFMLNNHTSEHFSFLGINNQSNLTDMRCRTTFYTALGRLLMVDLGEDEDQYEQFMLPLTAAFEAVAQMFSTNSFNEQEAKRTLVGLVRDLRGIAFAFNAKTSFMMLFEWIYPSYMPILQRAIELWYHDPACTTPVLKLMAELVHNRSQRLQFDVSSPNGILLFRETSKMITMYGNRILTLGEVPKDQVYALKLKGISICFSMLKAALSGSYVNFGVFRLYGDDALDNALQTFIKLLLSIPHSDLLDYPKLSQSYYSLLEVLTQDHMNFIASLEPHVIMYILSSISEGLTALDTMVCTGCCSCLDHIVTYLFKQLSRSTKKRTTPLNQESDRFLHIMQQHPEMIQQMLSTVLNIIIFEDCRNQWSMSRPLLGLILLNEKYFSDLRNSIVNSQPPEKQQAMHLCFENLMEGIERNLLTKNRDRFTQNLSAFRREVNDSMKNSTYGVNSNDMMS

Compound = CCCC[C@H](NC(C)=O)C(=O)N[C@@H](CO)C(=O)N[C@H](C(=O)N1CCC[C@H]1C(=O)N[C@@H](C)C(=O)N[C@@H](CCCNC(=N)N)C(=O)N[C@@H](CCCNC(=N)N)C(=O)N[C@@H](CCCNC(=N)N)C(=O)N[C@@H](CC(C)C)C(=O)N[C@@H](CCCC)C(=O)N[C@@H](CCCNC(=N)N)C(=O)N[C@@H](CC(=O)O)C(=O)N[C@@H](Cc1ccccc1)C(=O)N[C@@H](CCCCN)C(=O)N[C@@H](CCCNC(=N)N)C(=O)N[C@@H](CC(C)C)C(=O)N[C@@H](CCC(N)=O)C(N)=O)[C@@H](C)O; tested on = proteinase K; assay = LC-MS; conditions = 25 µM, 81.9 min, pH 7.4; quantity = remaining peptide; result = 4.7% and 0%
Compound = CC[C@H](C)[C@H](NC(=O)[C@H](Cc1ccccc1)NC(=O)[C@H](CCC(=O)O)NC(=O)[C@H](CCCNC(=N)N)NC(=O)[C@H](C)NC(=O)[C@H](C)NC(=O)[C@H](CCC(N)=O)NC(=O)[C@H](CCC(=O)O)NC(=O)[C@H](CCC(=O)O)NC(=O)[C@H](CC(C)C)NC(=O)[C@H](Cc1ccc(O)cc1)NC(=O)[C@H](CO)NC(=O)[C@H](CO)NC(=O)[C@@H](NC(=O)[C@H](CC(=O)O)NC(=O)[C@H](CO)NC(=O)[C@@H](NC(=O)[C@H](Cc1ccccc1)NC(=O)[C@@H](NC(=O)CNC(=O)[C@H](CCC(=O)O)NC(=O)[C@H](C)NC(=O)CCc1c[nH]cn1)[C@@H](C)O)[C@@H](C)O)C(C)C)C(=O)N[C@@H](C)C(=O)N[C@@H](Cc1c[nH]c2ccccc12)C(=O)N[C@@H](CC(C)C)C(=O)N[C@H](C(=O)N[C@@H](CCCNC(=N)N)C(=O)NCC(=O)N[C@@H](CCCNC(=N)N)C(=O)N[C@@H](CCCCNC(=O)COCCOCCNC(=O)COCCOCCNC(=O)CC[C@H](NC(=O)CCCCCCCCCCCCCCCCC(=O)O)C(=O)O)C(=O)NCC(=O)NCC(=O)N[C@@H](CO)C(=O)N[C@@H](CCCCNc1c(NCCCCCN(O)C(=O)CCC(=O)NCCCCCN(O)C(=O)CCC(=O)NCCCCCN(O)C(C)=O)c(=O)c1=O)C(=O)O)C(C)C [zirconium-89 labelled]; assay = ex vivo gamma counting; system = rat, brain; conditions = subcutaneous, 3 nmol/kg, 72 h, added: [89Zr]-labelled peptide; quantity = tissue uptake; result = 0.01 %ID/g
Compound = O=C(Nc1cccnn1)N1CCC(=Cc2cccc(Oc3ccc(C(F)(F)F)cn3)c2)CC1; tested on = HTR4 (Cavia porcellus, UniProt O70528); assay = radioligand binding; conditions = 50 µM, added: [3H]GR-113808; quantity = inhibition of binding; result = 61%
Compound = CC[C@H](C)[C@@H]1NC(=O)[C@@H]2CCCN2C(=O)[C@H](CC(C)C)NC(=O)[C@H](CC(C)C)NC(=O)CNC(=O)[C@@H](NC(=O)[C@@H](NC(=O)[C@H](CC(=O)O)NC(=O)CNC(=O)[C@@H](NC(=O)[C@H](C)NC(=O)CNC(=O)[C@H](CCCCN)NC(=O)[C@H](CC(C)C)NC(=O)[C@H](CC(C)C)NC(=O)[C@H](CCCCN)NC(=O)CNC(=O)[C@@H](NC(=O)[C@@H](N)CC(C)C)C(C)C)C(C)C)C(C)C)CSSC[C@@H](C(=O)O)NC1=O; assay = RNA-seq, measured: Lilra6; system = mouse, traumatic brain injury model, frontal cortex and hippocampus; conditions = dose not given; how to read = relative to: TBI alone; quantity = log2 fold change; result = -3.15
Compound = O=c1ccc2ccccc2o1; tested on = NHEK; assay = cell count; conditions = concentration not given, 24 h, heat and osmotic shock panel; quantity = chance response; result = 0.02%
Compound = O=C(c1ccc(Cl)cc1)N1CCN2C(=O)N(OC(=O)N3CCOc4ccccc43)C(=O)C2C1 (stereo not shown); tested on = Biotinidase (Homo sapiens, UniProt P43251); assay = MS-based ABPP; system = SW-620 conditioned medium; conditions = 10 µM, 1 h, 37 °C, mean protein ratio; how to read = relative to: compound over DMSO; quantity = probe labelling ratio; result = 1.78
Compound = COc1cc(Nc2ncc(F)c(Nc3ccc4c(n3)NC(=O)C(C)(C)O4)n2)cc(OC)c1OC; tested on = thyroid hormone receptor; quantity = IC50; result = > 10 µM
Compound = O=S(=O)(NCCNC/C=C/c1ccc(Br)cc1)c1cccc2cnccc12; tested on = PKA; assay = inhibitor; system = mouse zygotes; conditions = 20 µM, injection, hCG, 24 h post, early embryonic development; quantity = dead embryos; result = 0%
Compound = CC(=O)N1CCC(C(=O)N2CCN3C(=O)c4cc(-c5ccccc5)ccc4NC(=O)C3C2)CC1 (stereo not shown); tested on = Salmonella typhimurium; system = TA98; conditions = 500 µg/plate; quantity = revertants per plate; result = 36.5
Compound = CC1(C)[C@H](C=C(Cl)Cl)[C@H]1C(=O)OCc1cccc(Oc2ccccc2)c1; tested on = human microsomal CES2; assay = IVIVE from expressed enzymes; system = human, 5 years old, expressed human CES2; conditions = 0.1 µM; how to read = relative to: total hepatic CLint in vivo; quantity = relative enzyme contribution; result = 6.95%
Compound = C[C@@H](O)[C@@H](CO)NC(=O)[C@@H](CCCNC(=N)N)NC(=O)[C@@H]1CCCN1C(=O)[C@@H]1CSSC[C@H](NC(=O)[C@H](Cc2ccccc2)NC(=O)CN2CCN(CC(=O)O)CCN(CC(=O)O)CCN(CC(=O)O)CC2)C(=O)N[C@@H](Cc2ccc(O)cc2)C(=O)N[C@@H](Cc2ccccc2)C(=O)N[C@@H](CCC(N)=O)C(=O)N[C@@H](CC(N)=O)C(=O)N1 [gallium-68 labelled]; system = healthy Wistar rat, large intestine; conditions = intravenous, 8 MBq, 30 min; quantity = tissue uptake; result = 0.23 %ID/g
Compound = OCc1ncc2n1-c1ccc(Cl)cc1C(c1ccccc1F)=NC2; tested on = CYP3A4 (human); system = human, plasma; conditions = oral, 2 mg midazolam, probe alone Day -7; how to read = relative to: 1-hydroxymidazolam over midazolam; quantity = metabolite to parent Cmax ratio; result = 4.56
Compound = CO[C@H]1C[C@@H]2CC[C@@H](C)[C@@](O)(O2)C(=O)C(=O)N2CCCC[C@H]2C(=O)O[C@H]([C@H](C)C[C@@H]2CC[C@@H](OC(=O)NCCOCCOCCOCCOCCOCCOCCOCCOCCC(=O)N3CCc4cc(Cn5nc(-c6ccc7oc(N)nc7c6)c6c(N)ncnc65)ccc4C3)[C@H](OC)C2)C[C@@H](O)[C@H](C)/C=C(\C)[C@@H](O)[C@@H](OC)C(=O)[C@H](C)C[C@H](C)/C=C/C=C/C=C/1C; assay = dose-escalation trial; system = patients with advanced solid tumours; conditions = intravenous, all doses weekly, any grade; quantity = abdominal pain TEAE incidence; result = 21.1%
Compound = COC(=O)[C@@H](NC(=O)c1nn(Cc2ccc(F)cc2)c2ccccc12)C(C)(C)C; tested on = central CB1 receptor; system = mouse; conditions = intraperitoneal; quantity = lowest dose producing hypothermia; result = 0.03 mg/kg
Compound = COc1cccc(-c2n[nH]c(SCc3ccccn3)n2)c1OC; tested on = Salmonella typhimurium; assay = Ames test, preincubation; system = TA100; conditions = 0.031 mg/plate, with rat liver S9; quantity = revertant colonies per plate; result = 146
Compound = O=S(=O)(c1ccc(O)cc1)c1ccc(O)cc1; tested on = HepG2 spheroids; assay = annexin V-FITC/PI flow cytometry; conditions = 1 µM, 96 h; quantity = late apoptotic cells; result = 38.2 ± 4.7%
Compound = Nc1ncnc2c([C@@H]3N[C@H](CO)[C@@H](O)[C@H]3O)c[nH]c12; tested on = HeLa; conditions = 200 µM; quantity = cell number; result = 2250 and 3260
Compound = Cc1ncc2n1-c1ccc(Cl)cc1C(c1ccccc1F)=NC2; tested on = CYP3A4, human; conditions = 1-hydroxylation pathway; quantity = CLint; result = 5 µL/min/pmol
Compound = O=C1c2c(O)c(=O)ccn2N([C@@H]2c3ccccc3SCc3c2ccc(F)c3F)[C@@H]2COCCN12; system = BALB/c mice, plasma; conditions = oral, 1.5 mg/kg baloxavir marboxil, 0.5 h; quantity = plasma concentration; result = 12.9 ng/mL
Compound = Cc1cc2nc3c(=O)[nH]c(=O)nc-3n(C[C@H](O)[C@H](O)[C@H](O)COP(=O)(O)O)c2cc1C; tested on = nfsB (Escherichia coli K-12, UniProt P38489); assay = bound cofactor redox, redox titration; conditions = pH 7.0, 25 °C, anaerobic; quantity = midpoint potential; result = -199 ± 7 mV
Compound = Oc1ccc2c3c1O[C@H]1[C@@H](O)CC[C@@]4(O)[C@@H](C2)N(CC2CCC2)CC[C@]314; tested on = G-protein coupled receptor 61 (GPR61, Homo sapiens, UniProt Q9BZJ8); assay = β-arrestin recruitment, TANGO luminescence, measured: GPR61; conditions = concentration not given; how to read = relative to: basal luminescence; quantity = log2 fold change; result = 0.023
Compound = C[C@H]1CN(c2n[nH]c3nc(N[C@H]4CC[C@H](NS(=O)(=O)CCC(F)(F)F)CC4)ncc23)CCO1; tested on = Exportin-7 (Homo sapiens, UniProt Q9UIA9); assay = Kinobeads competition, measured: XPO7; conditions = 0.16 µM, unit not given; how to read = relative to: vehicle; quantity = remaining binding; result = 1.11
Compound = COc1cc2c(Oc3ccc4[nH]c(C)cc4c3F)ccnc2cc1OCC1(N)CC1; system = paediatric recurrent refractory sarcoma; conditions = 12 mg; quantity = Hypothyroidism incidence; result = 54.5%
Compound = CC(C)C[C@H](NC(=O)[C@H](C)NC(=O)[C@@H](NC(=O)[C@H](CCCNC(=N)N)NC(=O)[C@H](CC(C)C)NC(=O)[C@H](Cc1c[nH]c2ccccc12)NC(=O)[C@@H]1CCCN1C(=O)[C@@H](N)CCCCN)C(C)C)C(=O)N[C@@H](CS)C(=O)N1CCC[C@H]1C(=O)NCC(=O)O; tested on = Vero; assay = WST-1; conditions = 256 µM, 24 h; quantity = viability; result = 124% and 120% and 117%
Compound = Cc1cc(C(=O)NC(C)(C)COc2cccc3c2C(N)=NS(=O)(=O)N3)cc(C)n1; tested on = Salmonella typhimurium; assay = Ames test, confirmatory; system = TA1537; conditions = 100 µg/plate; how to read = relative to: solvent control; quantity = revertant ratio; result = 1
Compound = Cc1cc(C(C)(C)c2ccc(O)c(C)c2)ccc1O; tested on = HepG2 spheroids, dissociated; assay = annexin V-FITC/PI flow cytometry; conditions = 0.01 µM, 96 h; quantity = early apoptotic cells; result = 4.23 ± 1.95%
Compound = COc1ccc(N2C(=O)N(c3c(C)cccc3Cl)Cc3cnc(Nc4ccc(C5CCN(C)CC5)cc4OC)nc32)nc1; tested on = CAMK2A (Homo sapiens, UniProt Q9UQM7); assay = kinase activity; conditions = 0.5 µM; quantity = inhibition; result = 3.37%
Compound = [Cl-].[Cl-].[Pt+2].[Ru+2].c1ccc(-c2nc3cc4ccccc4cc3nc2-c2ccccn2)nc1.c1cnc2c(c1)ccc1cccnc12.c1cnc2c(c1)ccc1cccnc12; tested on = Danio rerio; system = embryos; conditions = 30 µM, 96 h; quantity = hatching rate; result = 50 ± 5.7%

For quick reference, copied from above:
Compound = COc1ccc(N2C(=O)N(c3c(C)cccc3Cl)Cc3cnc(Nc4ccc(C5CCN(C)CC5)cc4OC)nc32)nc1; tested on = CAMK2A (Homo sapiens, UniProt Q9UQM7); assay = kinase activity; conditions = 0.5 µM; quantity = inhibition; result = 3.37%
Compound = O=C1c2c(O)c(=O)ccn2N([C@@H]2c3ccccc3SCc3c2ccc(F)c3F)[C@@H]2COCCN12; system = BALB/c mice, plasma; conditions = oral, 1.5 mg/kg baloxavir marboxil, 0.5 h; quantity = plasma concentration; result = 12.9 ng/mL
